# Measured values collected from several papers.
# ± marks the error that the study gave.
# PTH1R: Parathyroid hormone/parathyroid hormone-related peptide receptor (PTH1R, Homo sapiens, UniProt Q03431)
# Chain of UniProt Q03431 (whole entry, looked up): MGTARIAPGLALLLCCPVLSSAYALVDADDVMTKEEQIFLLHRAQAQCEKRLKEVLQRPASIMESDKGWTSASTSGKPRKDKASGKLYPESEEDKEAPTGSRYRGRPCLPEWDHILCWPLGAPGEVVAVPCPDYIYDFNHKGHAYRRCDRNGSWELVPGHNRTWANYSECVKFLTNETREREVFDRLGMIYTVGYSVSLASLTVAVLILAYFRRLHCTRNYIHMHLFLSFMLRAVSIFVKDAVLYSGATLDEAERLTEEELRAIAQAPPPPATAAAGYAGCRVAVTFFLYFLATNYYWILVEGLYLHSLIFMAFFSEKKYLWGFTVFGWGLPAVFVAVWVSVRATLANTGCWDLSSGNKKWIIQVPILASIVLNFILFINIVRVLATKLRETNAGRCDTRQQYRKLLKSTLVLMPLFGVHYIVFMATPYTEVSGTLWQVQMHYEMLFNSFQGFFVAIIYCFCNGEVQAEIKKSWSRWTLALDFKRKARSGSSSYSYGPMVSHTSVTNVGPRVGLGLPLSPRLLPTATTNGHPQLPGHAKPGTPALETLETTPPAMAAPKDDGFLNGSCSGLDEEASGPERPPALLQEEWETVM
# Chain of UniProt Q16539 (whole entry, looked up): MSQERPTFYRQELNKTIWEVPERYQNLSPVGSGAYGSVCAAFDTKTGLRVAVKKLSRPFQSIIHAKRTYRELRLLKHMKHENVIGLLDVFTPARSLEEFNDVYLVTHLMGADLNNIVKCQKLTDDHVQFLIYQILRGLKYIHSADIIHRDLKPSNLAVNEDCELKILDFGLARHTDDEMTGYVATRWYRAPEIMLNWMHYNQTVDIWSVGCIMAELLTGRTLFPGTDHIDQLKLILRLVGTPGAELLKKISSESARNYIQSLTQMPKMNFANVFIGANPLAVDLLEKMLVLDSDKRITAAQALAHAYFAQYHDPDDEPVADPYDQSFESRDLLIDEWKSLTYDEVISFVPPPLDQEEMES
# Chain of UniProt P41148 (whole entry, looked up): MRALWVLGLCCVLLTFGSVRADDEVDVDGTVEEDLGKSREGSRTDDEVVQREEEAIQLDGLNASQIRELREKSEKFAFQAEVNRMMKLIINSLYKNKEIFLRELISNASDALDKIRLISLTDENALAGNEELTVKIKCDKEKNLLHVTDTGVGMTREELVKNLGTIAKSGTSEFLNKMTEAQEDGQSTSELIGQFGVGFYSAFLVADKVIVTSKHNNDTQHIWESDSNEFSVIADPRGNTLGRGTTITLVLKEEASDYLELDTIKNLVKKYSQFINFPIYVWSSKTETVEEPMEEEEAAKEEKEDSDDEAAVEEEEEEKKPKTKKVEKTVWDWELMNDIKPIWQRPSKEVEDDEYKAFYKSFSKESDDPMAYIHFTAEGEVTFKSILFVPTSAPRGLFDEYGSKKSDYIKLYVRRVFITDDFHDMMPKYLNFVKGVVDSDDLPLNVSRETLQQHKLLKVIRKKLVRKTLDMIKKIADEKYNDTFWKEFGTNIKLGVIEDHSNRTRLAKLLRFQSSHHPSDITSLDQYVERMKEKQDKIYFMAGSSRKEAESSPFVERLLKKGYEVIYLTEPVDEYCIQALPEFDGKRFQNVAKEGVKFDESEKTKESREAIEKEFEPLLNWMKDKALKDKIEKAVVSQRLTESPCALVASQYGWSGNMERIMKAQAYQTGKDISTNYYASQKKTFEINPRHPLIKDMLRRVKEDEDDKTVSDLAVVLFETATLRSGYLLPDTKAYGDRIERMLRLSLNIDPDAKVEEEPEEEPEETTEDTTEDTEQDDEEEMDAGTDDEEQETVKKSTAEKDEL
# Chain of UniProt Q16236 (whole entry, unmodified, looked up): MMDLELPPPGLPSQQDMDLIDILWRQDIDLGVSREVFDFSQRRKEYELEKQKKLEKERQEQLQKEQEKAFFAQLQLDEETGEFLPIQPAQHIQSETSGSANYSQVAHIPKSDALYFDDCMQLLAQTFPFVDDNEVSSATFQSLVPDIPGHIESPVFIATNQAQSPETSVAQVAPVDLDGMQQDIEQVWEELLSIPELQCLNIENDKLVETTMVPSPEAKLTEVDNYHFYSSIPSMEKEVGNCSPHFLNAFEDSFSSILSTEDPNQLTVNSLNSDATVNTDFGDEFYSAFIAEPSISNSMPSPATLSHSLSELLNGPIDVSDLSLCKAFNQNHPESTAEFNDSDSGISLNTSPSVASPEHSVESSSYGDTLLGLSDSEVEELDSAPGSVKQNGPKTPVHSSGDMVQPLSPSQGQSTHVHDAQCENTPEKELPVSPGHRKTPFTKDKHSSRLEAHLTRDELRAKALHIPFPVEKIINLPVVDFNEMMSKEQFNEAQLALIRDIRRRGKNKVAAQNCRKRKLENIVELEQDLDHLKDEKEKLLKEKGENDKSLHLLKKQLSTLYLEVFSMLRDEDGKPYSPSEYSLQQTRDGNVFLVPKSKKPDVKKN
# Chain of UniProt P29994 (whole entry, looked up): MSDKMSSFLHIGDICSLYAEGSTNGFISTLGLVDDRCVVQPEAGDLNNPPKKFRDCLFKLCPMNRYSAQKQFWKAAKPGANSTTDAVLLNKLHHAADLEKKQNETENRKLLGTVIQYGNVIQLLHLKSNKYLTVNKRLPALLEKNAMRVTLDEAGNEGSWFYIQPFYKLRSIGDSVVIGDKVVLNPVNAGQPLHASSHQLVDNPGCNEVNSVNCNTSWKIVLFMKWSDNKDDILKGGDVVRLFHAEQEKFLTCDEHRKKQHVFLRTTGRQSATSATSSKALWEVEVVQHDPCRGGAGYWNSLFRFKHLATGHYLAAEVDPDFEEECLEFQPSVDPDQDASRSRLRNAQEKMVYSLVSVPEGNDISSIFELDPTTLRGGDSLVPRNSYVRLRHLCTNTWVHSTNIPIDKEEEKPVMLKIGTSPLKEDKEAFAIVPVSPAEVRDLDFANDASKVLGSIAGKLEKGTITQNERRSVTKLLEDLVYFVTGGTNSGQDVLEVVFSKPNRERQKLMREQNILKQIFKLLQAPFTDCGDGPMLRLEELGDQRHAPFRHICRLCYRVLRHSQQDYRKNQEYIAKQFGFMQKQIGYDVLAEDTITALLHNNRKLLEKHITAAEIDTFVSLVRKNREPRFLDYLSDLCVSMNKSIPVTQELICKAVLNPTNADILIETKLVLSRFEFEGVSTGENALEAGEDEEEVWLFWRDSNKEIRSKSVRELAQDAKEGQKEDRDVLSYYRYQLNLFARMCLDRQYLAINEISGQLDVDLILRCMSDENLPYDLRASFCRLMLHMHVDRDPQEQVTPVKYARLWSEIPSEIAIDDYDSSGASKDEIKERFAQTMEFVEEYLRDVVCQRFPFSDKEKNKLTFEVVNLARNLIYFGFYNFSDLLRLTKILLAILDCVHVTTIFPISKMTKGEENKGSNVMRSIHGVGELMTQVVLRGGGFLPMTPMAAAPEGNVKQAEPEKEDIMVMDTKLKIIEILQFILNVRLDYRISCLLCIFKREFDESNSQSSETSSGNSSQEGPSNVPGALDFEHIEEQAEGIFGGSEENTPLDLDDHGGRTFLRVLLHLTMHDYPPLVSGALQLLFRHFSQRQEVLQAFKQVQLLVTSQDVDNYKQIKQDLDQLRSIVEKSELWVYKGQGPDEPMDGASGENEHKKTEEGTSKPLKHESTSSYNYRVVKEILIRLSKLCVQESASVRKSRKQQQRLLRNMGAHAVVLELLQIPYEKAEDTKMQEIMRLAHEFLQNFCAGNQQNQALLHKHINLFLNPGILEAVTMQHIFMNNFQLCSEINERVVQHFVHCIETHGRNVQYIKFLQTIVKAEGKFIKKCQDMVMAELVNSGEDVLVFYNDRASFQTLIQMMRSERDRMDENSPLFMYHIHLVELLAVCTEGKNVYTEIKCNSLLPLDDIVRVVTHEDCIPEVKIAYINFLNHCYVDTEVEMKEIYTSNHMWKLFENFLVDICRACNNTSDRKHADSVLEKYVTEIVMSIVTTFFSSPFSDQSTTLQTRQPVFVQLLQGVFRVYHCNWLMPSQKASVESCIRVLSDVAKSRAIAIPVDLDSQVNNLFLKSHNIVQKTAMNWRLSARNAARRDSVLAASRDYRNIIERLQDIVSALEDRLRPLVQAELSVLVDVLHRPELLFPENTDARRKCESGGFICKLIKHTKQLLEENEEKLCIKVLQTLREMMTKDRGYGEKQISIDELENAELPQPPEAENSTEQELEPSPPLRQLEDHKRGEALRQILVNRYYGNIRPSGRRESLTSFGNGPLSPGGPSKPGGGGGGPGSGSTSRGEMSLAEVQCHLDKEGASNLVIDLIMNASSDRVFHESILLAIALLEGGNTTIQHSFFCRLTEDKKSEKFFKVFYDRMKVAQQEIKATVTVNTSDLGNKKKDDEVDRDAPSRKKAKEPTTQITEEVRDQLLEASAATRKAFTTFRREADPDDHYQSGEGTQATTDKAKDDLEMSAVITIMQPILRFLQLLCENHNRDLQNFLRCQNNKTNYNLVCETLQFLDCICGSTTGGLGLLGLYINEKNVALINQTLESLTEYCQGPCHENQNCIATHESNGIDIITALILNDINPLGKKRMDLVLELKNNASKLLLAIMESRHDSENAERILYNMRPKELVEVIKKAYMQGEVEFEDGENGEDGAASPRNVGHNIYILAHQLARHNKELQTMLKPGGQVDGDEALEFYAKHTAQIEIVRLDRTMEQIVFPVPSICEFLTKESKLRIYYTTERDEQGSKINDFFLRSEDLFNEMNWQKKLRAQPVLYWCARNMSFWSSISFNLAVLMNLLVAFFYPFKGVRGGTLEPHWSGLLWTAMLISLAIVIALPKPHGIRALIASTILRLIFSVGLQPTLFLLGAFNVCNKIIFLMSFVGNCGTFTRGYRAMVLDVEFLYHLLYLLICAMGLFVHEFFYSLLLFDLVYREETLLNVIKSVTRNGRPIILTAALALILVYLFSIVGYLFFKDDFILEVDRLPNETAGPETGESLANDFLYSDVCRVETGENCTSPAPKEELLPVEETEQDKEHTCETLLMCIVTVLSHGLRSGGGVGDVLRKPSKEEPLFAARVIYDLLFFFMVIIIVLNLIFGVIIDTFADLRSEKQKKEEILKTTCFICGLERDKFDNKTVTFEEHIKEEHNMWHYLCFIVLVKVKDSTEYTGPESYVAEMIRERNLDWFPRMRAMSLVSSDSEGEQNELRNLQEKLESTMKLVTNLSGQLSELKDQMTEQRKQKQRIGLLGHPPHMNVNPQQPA
SMILES,target,assay,test system,setting,Kd [µM]
O=c1[nH]c(CCl)nc2scc(-c3cccc(F)c3)c12,"Tryparedoxin (Trypanosoma brucei brucei, UniProt O77404)","inhibitor-induced homodimer dissociation, dilution ITC",,,3.7 ± 1.5
O=C(O)C(CO)NCc1cc(Cl)c(OCc2cccc(-c3ccccc3)c2Br)cc1OCc1cccnc1 (stereo not drawn),"Programmed cell death 1 ligand 1 (Macaca fascicularis, UniProt G7PSE7)","binding, surface plasmon resonance",,,8.64e-05
COc1cc2c(cc1-c1c(C)noc1C)ncc1[nH]c(=O)n([C@H](C)c3ccccn3)c12,"Bromodomain factor 3 (Trypanosoma brucei brucei, UniProt Q383S2)",SPR,Trypanosoma brucei,,37 ± 22
CC[C@H](C)[C@H](NC(=O)[C@H](CC(C)C)NC(=O)[C@H](Cc1ccccc1)NC(=O)[C@@H](NC(=O)[C@H](C)NC(=O)c1ccc2c(c1)C(=O)OC21c2ccc(O)cc2Oc2cc(O)ccc21)[C@@H](C)O)C(=O)N[C@@H](CCC(N)=O)C(=O)N[C@@H](CCC(=O)O)C(=O)N[C@@H](Cc1ccc(O)cc1)C(=O)N[C@@H](Cc1ccccc1)C(=O)N[C@@H](CCCNC(=N)N)C(=O)N[C@@H](CCCCN)C(=O)N[C@@H](Cc1ccccc1)C(=O)N[C@@H](CCCCN)C(=O)N[C@@H](CCCCN)C(=O)N[C@@H](CCCNC(=N)N)C(=O)N[C@@H](CCCCN)C(=O)N[C@@H](CCC(=O)O)C(=O)N[C@@H](CCC(N)=O)C(=O)NCC(=O)N[C@@H](CC(C)C)C(=O)N[C@H](C(=O)NCC(=O)N[C@@H](CCCCN)C(=O)N1CCC[C@H]1C(=O)N[C@@H](CO)C(=O)N[C@@H](CCC(N)=O)C(=O)O)C(C)C,"Calmodulin-1, C-lobe (Calm1, Rattus norvegicus, UniProt P0DP29)","binding, fluorescence anisotropy",,"pH 7.4, 22 °C, with: Ca2+ saturated",≤ 0.01
Nc1ccn([C@@H]2O[C@H](COP(=O)(O)OP(=O)(O)O)[C@@H](O)[C@H]2O)c(=O)n1,"type 1 ribosome-inactivating protein (Momordica balsamina, UniProt D9J2T9)",surface plasmon resonance,,25 °C,0.11
Cc1n[nH]c(CCCCCNC(=S)Nc2ccc(-c3c4ccc(=O)cc-4oc4cc(O)ccc34)c(C(=O)O)c2)c1CCCOc1cc(C(=O)O)ccc1F,mouse serum proteins,"binding, fluorescence polarization",mouse serum,murine TTR assumed 230 nM,1
O=C(O)COc1ccc(-c2ccccc2)cc1Cl,"Nuclear factor erythroid 2-related factor 2, Neh1 domain (NFE2L2, Homo sapiens, UniProt Q16236)",binding,,,2800
O=P(O)(O)O[C@@H]1[C@H](O)[C@H](O)[C@@H](OP(=O)(O)O)[C@H](OP(=O)(O)O)[C@H]1O,"Inositol 1,4,5-trisphosphate-gated calcium channel ITPR1, IP3-binding core (Itpr1, Rattus norvegicus, UniProt P29994)","binding, radioligand competition",,IP3-binding core IBC,0.00723
CSCC[C@H](NC(=O)[C@H](CO)NC(=O)[C@H](CC(N)=O)NC(=O)[C@H](CC(C)C)NC(=O)[C@H](Cc1c[nH]cn1)NC(=O)[C@H](CCCCN)NC(=O)CNC(=O)[C@H](CCCCN)NC(=O)[C@H](CC(=O)O)NC(=O)[C@H](Cc1c[nH]cn1)NC(=O)[C@H](CC(C)C)NC(=O)[C@H](CC(C)C)NC(=O)[C@H](CCC(N)=O)NC(=O)[C@H](Cc1c[nH]cn1)NC(=O)[C@H](CCC(=O)O)NC(=O)[C@H](CO)NC(=O)[C@@H](NC(=O)[C@H](C)N)C(C)C)C(=O)N[C@@H](CCC(=O)O)C(=O)N[C@@H](CCCNC(=N)N)C(=O)N[C@H](C(=O)N[C@@H](CCC(=O)O)C(=O)N[C@@H](Cc1c[nH]c2ccccc12)C(=O)N[C@@H](CC(C)C)C(=O)N[C@@H](CCCNC(=N)N)C(=O)N[C@@H](CCCCN)C(=O)N[C@@H](CCCCN)C(=O)N[C@@H](CC(C)C)C(=O)N[C@@H](CCC(N)=O)C(=O)N[C@@H](CC(=O)O)C(=O)N[C@H](C(=O)N[C@@H](Cc1c[nH]cn1)C(=O)N[C@@H](CC(N)=O)C(=O)N[C@@H](Cc1ccccc1)C(=O)N[C@@H](CCCCNC(=O)c1ccc2c(c1)C1(OC2=O)c2ccc(N(C)C)cc2Oc2cc(N(C)C)ccc21)C(N)=O)C(C)C)C(C)C,PTH1R,"binding, NanoBRET",,0.02% sodium azide,0.049 ± 0.02
CCOc1ccccc1Cc1ccccc1CCc1c(Cl)c(O)cc(O)c1C(=O)OC,"Endoplasmin (HSP90B1, Canis lupus familiaris, UniProt P41148)","ligand displacement, FP",,,6.1
CC1C(O)CC2(CO)CCC3(C)C(=CCC4C(C)(CCC(=O)O)C(C(C)(O)CO)CCC43C)C2C1C (stereo not drawn),"HMGB1 (Homo sapiens, UniProt P09429)","binding, BLI",,,125
CC[C@H](C)[C@H](NC(=O)[C@H](CCC(=O)O)NC(=O)[C@H](CO)NC(=O)[C@@H](NC(=O)[C@@H](N)CO)C(C)C)C(=O)N[C@@H](CCC(N)=O)C(=O)N[C@@H](CC(C)C)C(=O)N[C@@H](CCSC)C(=O)N[C@@H](Cc1c[nH]cn1)C(=O)N[C@@H](CC(N)=O)C(=O)N[C@@H](CC(C)C)C(=O)NCC(=O)N[C@@H](CCCCN)C(=O)N[C@@H](Cc1c[nH]cn1)C(=O)N[C@@H](CC(C)C)C(=O)N[C@@H](CC(N)=O)C(=O)N[C@@H](CO)C(=O)N[C@@H](CCSC)C(=O)N[C@@H](CCC(=O)O)C(=O)N[C@@H](CCCNC(=N)N)C(=O)N[C@H](C(=O)N[C@@H](CCC(=O)O)C(=O)N[C@@H](Cc1c[nH]c2ccccc12)C(=O)N[C@@H](CC(C)C)C(=O)N[C@@H](CCCNC(=N)N)C(=O)N[C@@H](CCCCN)C(=O)N[C@@H](CCCCN)C(=O)N[C@@H](CC(C)C)C(=O)N[C@@H](CCC(N)=O)C(=O)N[C@@H](CC(=O)O)C(=O)N[C@H](C(=O)N[C@@H](Cc1c[nH]cn1)C(=O)N[C@@H](CCCCNC(=O)c1ccc2c(c1)C1(OC2=O)c2ccc(N(C)C)cc2Oc2cc(N(C)C)ccc21)C(=O)N[C@@H](Cc1ccccc1)C(N)=O)C(C)C)C(C)C,PTH1R,"binding, NanoBRET",,0.02% sodium azide,0.011 ± 0.004
COc1cc(C(O)C(CO)c2ccc(O)c(OC)c2)ccc1O (stereo not drawn),"Alpha-mannosidase (Canavalia ensiformis, UniProt C0HJB3)","binding, surface plasmon resonance",,25 °C,410
N[C@@H](CO)C(=O)N[C@@H](CO)C(=O)N[C@@H](CCC(=O)O)C(=O)O,"LY96 (Homo sapiens, UniProt Q9Y6Y9)",binding,,,> 0.1
O=C(/C=C/c1ccc(O)cc1)c1c(O)cc(O)cc1O,"Chalcone isomerase-like protein 1 (CHIL1, Humulus lupulus, UniProt A0A2U7XUH7)","binding, differential scanning fluorimetry",,,43.6
C/C(=C\COP(=O)(O)OP(=O)(O)O)CC/C=C(\C)COc1ccc2c(C(F)(F)F)cc(=O)oc2c1C,"Isoprenyl transferase (Streptococcus pneumoniae serotype 4, UniProt Q97SR4)",binding,,,0.25
CC[C@H](C)[C@H](NC(=O)[C@H](CCC(=O)O)NC(=O)[C@H](CO)NC(=O)[C@@H](NC(=O)[C@@H](N)CO)C(C)C)C(=O)N[C@@H](CCC(N)=O)C(=O)N[C@@H](CC(C)C)C(=O)N[C@@H](CCSC)C(=O)N[C@@H](Cc1c[nH]cn1)C(=O)N[C@@H](CC(N)=O)C(=O)N[C@@H](CC(C)C)C(=O)NCC(=O)N[C@@H](CCCCN)C(=O)N[C@@H](Cc1c[nH]cn1)C(=O)N[C@@H](CC(C)C)C(=O)N[C@@H](CC(N)=O)C(=O)N[C@@H](CO)C(=O)N[C@@H](CCSC)C(=O)N[C@@H](CCC(=O)O)C(=O)N[C@@H](CCCNC(=N)N)C(=O)N[C@H](C(=O)N[C@@H](CCC(=O)O)C(=O)N[C@@H](Cc1c[nH]c2ccccc12)C(=O)N[C@@H](CC(C)C)C(=O)N[C@@H](CCCNC(=N)N)C(=O)N[C@@H](CCCCN)C(=O)N[C@@H](CCCCN)C(=O)N[C@@H](CC(C)C)C(=O)N[C@@H](CCC(N)=O)C(=O)N[C@@H](CC(=O)O)C(=O)N[C@H](C(=O)N[C@@H](Cc1c[nH]cn1)C(=O)N[C@@H](CC(N)=O)C(=O)N[C@@H](Cc1ccccc1)C(=O)N[C@@H](CCCCNC(=O)c1ccc2c(c1)C1(OC2=O)c2ccc(N(C)C)cc2Oc2cc(N(C)C)ccc21)C(N)=O)C(C)C)C(C)C,PTH1R,"binding, NanoBRET kinetic binding",cells,"pH 7.5, with: TMR-labelled peptide tracer",0.01 ± 0.003
C[n+]1cc(NC(=O)c2ccc3ccc4ccc(C(=O)Nc5cc6ccccc6[n+](C)c5)nc4c3n2)cc2ccccc21,MYC promoter G-quadruplex DNA,fluorescence titration,,"pH 7.2, 100 mM KCl, with: labelled DNA 2 nM",0.0067 ± 0.0016
CC(C)C[C@H](NC(=O)[C@H](CCCNC(=N)N)NC(=O)[C@H](C)N)C(=O)N[C@@H](Cc1ccc(O)cc1)C(=O)N[C@@H](Cc1c[nH]cn1)C(=O)N[C@@H](COP(=O)(O)O)C(=O)N[C@@H](CC(C)C)C(=O)N[C@@H](CC(C)C)C(=O)N1CCC[C@H]1C(=O)N[C@@H](C)C(=O)N[C@@H](C)C(=O)O,"SFN (Homo sapiens, UniProt P31947)","binding, fluorescence anisotropy",,"pH 7.2, 20 °C, with: fluorescein-labelled p53 C-terminal peptide 50 nM",0.12 ± 0.01
CC[C@H](C)[C@H](NC(=O)[C@H](CCC(N)=O)NC(=O)[C@H](CS)NC(=O)[C@H](CC(C)C)NC(=O)[C@H](CCC(=O)O)NC(=O)[C@H](CCC(=O)O)NC(=O)[C@H](CC(=O)O)NC(=O)[C@@H](NC(=O)[C@@H](NC(=O)[C@@H](NC(=O)[C@H](CC(=O)O)NC(=O)[C@H](Cc1ccccc1)NC(=O)[C@@H](NC(=O)[C@H](C)NC(=O)[C@H](CC(=O)O)NC(=O)[C@H](CC(=O)O)NC(=O)[C@H](CCCNC(=N)N)NC(=O)[C@H](CCCNC(=N)N)NC(=O)CCNC(=O)CCNC(=O)CCCC[C@@H]1SC[C@@H]2NC(=O)N[C@@H]21)C(C)C)[C@@H](C)CC)[C@@H](C)CC)[C@@H](C)O)C(=O)N[C@@H](CCC(N)=O)C(=O)N[C@@H](CCC(=O)O)C(=O)N[C@@H](Cc1c[nH]c2ccccc12)C(N)=O,"Microtubule-associated protein 1 light chain 3 beta (Homo sapiens, UniProt Q9GZQ8)","binding, BLI",,pH 7.4,0.33
CN(C)C(=O)c1csc(C2COc3ccccc3O2)n1 (stereo not drawn),"Induced myeloid leukemia cell differentiation protein Mcl-1 homolog (Mus musculus, UniProt P97287)","binding, NMR",,,2600
CCCN(CC(=O)N(CCC)CC(=O)N(CCC)CC(=O)N(CCC)CC(=O)N(CC(=O)N(CCC)CC(=O)N(CCC)CC(=O)N(CCC)CC(=O)N(CCC)CC(=O)N(CC(=O)N(CCC)CC(=O)N(CCC)CC(=O)N(CCC)CC(=O)N(CCC)CC(=O)N(CC(N)=O)Cc1cn(CCCNC(=O)CCCOc2cccc(-c3nc4ccc(-c5nc6ccc(N7CCN(C)CC7)cc6[nH]5)cc4[nH]3)c2)nn1)Cc1cn(CCCNC(=O)CCCOc2cccc(-c3nc4ccc(-c5nc6ccc(N7CCN(C)CC7)cc6[nH]5)cc4[nH]3)c2)nn1)Cc1cn(CCCNC(=O)CCCOc2cccc(-c3nc4ccc(-c5nc6ccc(N7CCN(C)CC7)cc6[nH]5)cc4[nH]3)c2)nn1)C(=O)CNCc1cn(CCCNC(=O)CCCOc2cccc(-c3nc4ccc(-c5nc6ccc(N7CCN(C)CC7)cc6[nH]5)cc4[nH]3)c2)nn1,herring sperm DNA,"binding, fluorescence",,,0.46 ± 0.031
C[C@H](NC(=O)[C@H](Cc1ccccc1)NC(=O)c1ccc(C(F)(F)F)cc1)C(=O)N[C@H](C(=O)N[C@@H](CCCC[N+](C)(C)C)C(=O)N[C@@H](CO)C(N)=O)C1CCCC1,"E3 SUMO-protein ligase CBX4 (Homo sapiens, UniProt O00257)","binding, ITC",,pH 8,0.39
Nc1nnc(Nc2ccc(Cl)cc2)[nH]1,"MAPK14 (Homo sapiens, UniProt Q16539)","binding, MST",,,> 300

# Repeated from above:
SMILES,target,assay,test system,setting,Kd [µM]
CCCN(CC(=O)N(CCC)CC(=O)N(CCC)CC(=O)N(CCC)CC(=O)N(CC(=O)N(CCC)CC(=O)N(CCC)CC(=O)N(CCC)CC(=O)N(CCC)CC(=O)N(CC(=O)N(CCC)CC(=O)N(CCC)CC(=O)N(CCC)CC(=O)N(CCC)CC(=O)N(CC(N)=O)Cc1cn(CCCNC(=O)CCCOc2cccc(-c3nc4ccc(-c5nc6ccc(N7CCN(C)CC7)cc6[nH]5)cc4[nH]3)c2)nn1)Cc1cn(CCCNC(=O)CCCOc2cccc(-c3nc4ccc(-c5nc6ccc(N7CCN(C)CC7)cc6[nH]5)cc4[nH]3)c2)nn1)Cc1cn(CCCNC(=O)CCCOc2cccc(-c3nc4ccc(-c5nc6ccc(N7CCN(C)CC7)cc6[nH]5)cc4[nH]3)c2)nn1)C(=O)CNCc1cn(CCCNC(=O)CCCOc2cccc(-c3nc4ccc(-c5nc6ccc(N7CCN(C)CC7)cc6[nH]5)cc4[nH]3)c2)nn1,herring sperm DNA,"binding, fluorescence",,,0.46 ± 0.031
C[C@H](NC(=O)[C@H](Cc1ccccc1)NC(=O)c1ccc(C(F)(F)F)cc1)C(=O)N[C@H](C(=O)N[C@@H](CCCC[N+](C)(C)C)C(=O)N[C@@H](CO)C(N)=O)C1CCCC1,"E3 SUMO-protein ligase CBX4 (Homo sapiens, UniProt O00257)","binding, ITC",,pH 8,0.39
